Experimental data of several laboratories.
Numbered parts are unrelated; each lists some results of a single study. Positions count from the first letter of the parent shown.

Study 1
Target: Histone acetyltransferase KAT6A, both winged helices, GST fusion (KAT6A, Homo sapiens, UniProt Q92794, residues 1-181)
Method: protein binding microarray
Molecule type: double-stranded DNA, one strand shown
Medium: in vitro
Concentration: not given
Notes: 8-mer, flanks averaged, mean of 2 arrays, mostly near background
Relative to: not given
Direction: higher = stronger binding
Residues (chain): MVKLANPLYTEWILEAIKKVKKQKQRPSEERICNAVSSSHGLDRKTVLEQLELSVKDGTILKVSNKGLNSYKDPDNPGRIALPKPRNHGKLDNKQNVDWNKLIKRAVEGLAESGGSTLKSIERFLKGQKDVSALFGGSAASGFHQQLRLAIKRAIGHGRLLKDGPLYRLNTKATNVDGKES
| Oligonucleotide | E-score |
| --- | --- |
| GGACAGAC | 0.0143 |
| AGTAGTTG | -0.0535 |
| AGGAGGTA | -0.208 |
| ATACAAAT | 0.0274 |
| CAGAAGAG | -0.197 |
| CTGCAATA | -0.0834 |
| AACTTTGT | 0.052 |
| ATGCGCAC | 0.269 |
| CATCGCGA | 0.261 |
| AGTGCTAT | -0.257 |
| AACAAGGT | -0.124 |
| ATGATTAA | -0.0283 |
| GAGCCGGC | 0.235 |
| ATTTTCTG | -0.164 |
| CATTGAGA | 0.0794 |

Study 2
Target: ABI1, truncated, D143A, DHFR fusion (Arabidopsis thaliana)
Method: DHFR PCA, deep sequencing
Medium: yeast
Notes: methotrexate growth selection, single substitutions
Together with: (+)-ABA 17 µM
Relative to: wild-type fitted maximum
Direction: higher = stronger binding
Starting sequence: PYL1, truncated, DHFR fusion (Arabidopsis thaliana); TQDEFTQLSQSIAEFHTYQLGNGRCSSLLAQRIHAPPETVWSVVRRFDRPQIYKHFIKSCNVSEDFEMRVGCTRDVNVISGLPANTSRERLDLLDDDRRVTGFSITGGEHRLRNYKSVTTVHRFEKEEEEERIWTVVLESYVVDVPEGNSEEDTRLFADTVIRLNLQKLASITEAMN; partner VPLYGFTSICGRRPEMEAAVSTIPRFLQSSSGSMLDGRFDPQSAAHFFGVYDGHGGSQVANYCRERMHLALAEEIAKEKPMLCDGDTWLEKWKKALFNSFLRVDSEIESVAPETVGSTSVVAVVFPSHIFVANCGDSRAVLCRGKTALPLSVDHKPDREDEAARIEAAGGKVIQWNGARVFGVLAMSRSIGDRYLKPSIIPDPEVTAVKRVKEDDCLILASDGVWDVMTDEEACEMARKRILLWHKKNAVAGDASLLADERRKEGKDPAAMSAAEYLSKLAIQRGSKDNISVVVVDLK
| Change | relative binding score |
| --- | --- |
| T39R | 81.1% |
| Y141E | -2.97% |
| G107M | 2.65% |
| D92N | 42% |
| F56V | 5.74% |
| E130A | 85.7% |
| L169D | -14.3% |
| S87P | 7.71% |
| T101I | 94.9% |
| V40H | -11.8% |
| S117A | 60.8% |
| G148P | 29.4% |
| V145W | -2.26% |

Study 3
Organism: Saccharomyces cerevisiae
Read-out: binding
Method: yeast competitive growth sequencing
Molecule type: peptide
Strain: cyclin D1-Cln2 strain
Medium: peptide tiling library
Direction: direction not given
| Molecule | enrichment score |
| --- | --- |
| GTPKRCLDLSNLSSGE | -0.374 |
| NESHLDKEHDAVEVAD | 1.47 |
| RQVRRDLFAF | -2.04 |
| LENIEPLQVSFAVLSS | 2.36 |
| VKRLNFRSEEME | -2.01 |
| YLYLLLTQSLWCRV | -1.81 |
| NSMKELNFSHLPSNSV | 1.4 |
| KRCATPVIIDEILPSK | 1.78 |
| VLPGGVPSPGASLTSM | 0.829 |
| ATNSSHTDAHEILVSD | 1.59 |
| RTEALEQGGLPKKLIF | 0.801 |

Single results of other studies
| Molecule | target | assay | system | setting | how to read | quantity | value |
| --- | --- | --- | --- | --- | --- | --- | --- |
| PhoQ, residues 284 288 289 292 302 303 SSLVEF | PhoP, residues 12 14 15 18 19 LHHSG (Escherichia coli, UniProt P23836) | Sort-seq, item: YFP reporter | E. coli | PhoQ-PhoP variant library, together with: 10 µM Mg2+ | relative to: high Mg2+ state, higher = stronger signaling | fold induction | 27.4 |

Some of these lines once more (study 2):
| Change | relative binding score |
| --- | --- |
| E130A | 85.7% |
| L169D | -14.3% |
| S87P | 7.71% |
| T101I | 94.9% |
| V40H | -11.8% |
| S117A | 60.8% |
